Experimental data collected from several papers.
Protocols differ between the studies behind these lines. ± gives the spread as reported.

O=C(Cc1ccc(-c2cccs2)cc1)Nc1cc(C2CC2)[nH]n1  logD (octanol/buffer; 67 µM, pH 7.4): 4.31
CN1CCN(c2cccc(-c3ccc4ncnc(Nc5ncco5)c4c3)c2)CC1  CLint (human liver microsomes): 34 µL/min/mg
Cc1ccc(O)c(-n2nc3ccccc3n2)c1  daily dermal exposure dose (human aged 3-6 years; concentration not given, sunscreen, 95th percentile): 5140 ng/kg/day
CCn1c(=O)c(-c2cc(NC(=O)Nc3ccccc3)c(F)cc2Br)cc2cnc(NC)cc21  participants with grade ≥ 3 TEAE (item: amylase increased; healthy human, matched to moderate hepatic impairment; oral, 50 mg single dose): 0%
N#Cc1ccc2c(c1)[C@H]1CCCN(C(=O)c3ccc4[nH]cnc4c3)[C@H]1C2  cortisol level change (human; 40 mg, day 15; baseline: baseline): -39 nmol/L
CC[C@H](C)[C@H](NC(=O)[C@H](CO)NC(=O)[C@H](CCCNC(=N)N)NC(C)=O)C(=O)N[C@H]1CSSC[C@@H](C(=O)N[C@H](C(N)=O)[C@@H](C)O)NC(=O)[C@H](CCCNC(=N)N)NC(=O)[C@H](Cc2c[nH]cn2)NC(=O)[C@H](C)NC(=O)CNC(=O)[C@H](Cc2c[nH]c3ccccc23)NC(=O)[C@H](CC(=O)O)NC(=O)[C@H](CCC(N)=O)NC(=O)[C@H](Cc2cccc3ccccc23)NC(=O)[C@H](C(C)C)NC1=O  log retention factor (RP-HPLC, C18; 28% acetonitrile isocratic; pH 7.4): 0.603
CC[C@H](C)[C@H](NC(=O)[C@H](Cc1ccccc1)NC(=O)[C@H](CCC(=O)O)NC(=O)[C@H](CCCCNC(=O)COCCOCCNC(=O)COCCOCCNC(=O)CC[C@H](NC(=O)CCCCCCCCCCCCCCCCC(=O)O)C(=O)O)NC(=O)[C@H](C)NC(=O)[C@H](C)NC(=O)[C@H](CCC(N)=O)NC(=O)CNC(=O)[C@H](CCC(=O)O)NC(=O)[C@H](CC(C)C)NC(=O)[C@H](Cc1ccc(O)cc1)NC(=O)[C@H](CO)NC(=O)[C@H](CO)NC(=O)[C@@H](NC(=O)[C@H](CC(=O)O)NC(=O)[C@H](CO)NC(=O)[C@@H](NC(=O)[C@H](Cc1ccccc1)NC(=O)[C@@H](NC(=O)CNC(=O)[C@H](CCC(=O)O)NC(=O)C(C)(C)NC(=O)[C@@H](N)Cc1cnc[nH]1)[C@@H](C)O)[C@@H](C)O)C(C)C)C(=O)N[C@@H](C)C(=O)N[C@@H](Cc1c[nH]c2ccccc12)C(=O)N[C@@H](CC(C)C)C(=O)N[C@H](C(=O)N[C@@H](CCCNC(=N)N)C(=O)NCC(=O)N[C@@H](CCCNC(=N)N)C(=O)NCC(=O)O)C(C)C  subjects with moderate AEs (Caucasian subjects; 0.5 mg): 25%
CCOC(=O)N1C[C@@H](c2ccccc2O)N[C@@H](c2ccc(C(F)(F)F)cc2)C1  logD (shake-flask, 1-octanol/buffer; pH 7.4): > 4.7
CCN1/C(=C/C(C)=O)Sc2ccc(F)cc21  diastolic blood pressure (cynomolgus monkey; oral, 30 mg/kg, 2 h post-dose): 75 ± 3 mmHg
CC(C)n1c(Nc2cccnc2)nc2cnc(Nc3ccc(N4CCN(C)CC4)cc3)nc21  subjects with TEAE (item: eosinophil count increased; healthy human, male; oral, dose not given, CTCAE grade 1-3): 2.4%
C/C=C/C[C@@H](C)C(=O)[C@H]1C(=O)N[C@@H](C(C)C)C(=O)N(C)CC(=O)N(C)[C@@H](CC(C)C)C(=O)N[C@@H](C(C)C)C(=O)N(C)[C@@H](CC(C)C)C(=O)N[C@@H](C)C(=O)N[C@H](C)C(=O)N(C)[C@@H](CC(C)C)C(=O)N(C)[C@@H](CC(C)C)C(=O)N(C)[C@@H](C(C)C)C(=O)N1C  free plasma concentration (Sprague Dawley rat, plasma; intravenous infusion, 0.09 mg/h/kg, 4 h, 4.5 h constant infusion): 32.3 ng/mL
Cc1ccc(Sc2ccccc2N2CCNCC2)c(C)c1  participants with TEAE (item: metrorrhagia; healthy adult men; oral, 5 mg daily, 12 days): 0%
CN(C(=O)n1cnc(-c2cccnc2)c1)[C@H]1CC[C@H](O)CC1  concentration (Wistar rat, pons; oral, 10 mg/kg/day of BIA 10-2474, 48 h, repeated 5 days): 14 ± 1 ng/g
COc1cccc(OC)c1NS(=O)(=O)c1ccc(N/C=C2\C(=O)Nc3ccc4ncsc4c32)cc1  logD (octanol/buffer; 67 µM, pH 7.4): 3.82
OC[C@H]1O[C@@H](c2ccc(F)c(Cc3cc4ccccc4s3)c2)[C@H](O)[C@@H](O)[C@@H]1O  hypoglycaemia-related adverse event (Japanese patients, type 1 diabetes; oral, 25 mg/day, onset day 3; baseline: patients): 5%
OCc1nc2ccc(NCc3ccc(C(F)(F)F)cc3)cc2[nH]1  tissue concentration (Balb/c mouse, male, kidney; intravenous, 1 mg/kg, 6 h): 59.9 ± 18.7 ng/g
CCC(=O)N(CCC(c1ccc2c(c1)OCO2)c1ccccc1OC)Cc1ccccc1 (centres unmarked)  HGB (female athymic nude mouse, blood; i.p., 60 mg/kg twice daily, 14 days, group mean): 14.9 g/dL
O=C(COc1ccc(Cl)cc1)NC12CC(c3nnc([C@H]4C[C@@H](OC(F)(F)F)C4)o3)(C1)C2  adverse event incidence (item: Hypogeusia; human; 200 mg once daily, 28 (unit not given)): 11.1%
CN(CCC(=O)O)C(=O)c1ccc2c(c1)CC[C@@H]1[C@@H]2CC[C@]2(C)C(c3cncc(F)c3)=CC[C@@H]12  direct bilirubin change (premenopausal women, endometriosis pain, serum; 60 mg twice daily, visit 6, mean; baseline: baseline): 0.215 mg/dL
C=CC(=O)Nc1cc(Nc2nccc(-c3cn(C)c4ccccc34)n2)c(OC)cc1N(C)CCN(C)C  recovery (storage stability; human dried blood spot; 2 h, on ice, LLOQ level): 92.8%
CCn1cc(C(=O)N2CCOCC2)c(=O)c2cc(NC3Cc4ccccc4C3)cnc21  Tmax (human, fed; oral suspension, 2000 mg/day twice daily, day 1, median): 3 h
CC(C)(C(=O)N1CCOc2c(C#N)cncc2C1)C(F)F  subjects with adverse event (item: upper abdominal pain; human; oral, 10 mg once daily, 14 days, multiple ascending dose): 12.5%
O=C(O)CCC(=O)O.[2H]C([2H])([2H])Oc1cc(C)c2[nH]ccc2c1CN1CC[C@@H](C2CC2)C[C@H]1c1ccc(C(=O)O)cc1  TEAE hyponatremia (healthy Chinese subjects; 600 mg, single ascending dose): 16.7%
CO[C@H]1C[C@@H]2CC[C@@H](C)[C@@](O)(O2)C(=O)C(=O)N2CCCC[C@H]2C(=O)O[C@H]([C@H](C)C[C@@H]2CC[C@@H](O)[C@H](OC)C2)CC(=O)[C@H](C)/C=C(\C)[C@@H](O)[C@@H](OC)C(=O)[C@H](C)C[C@H](C)/C=C/C=C/C=C/1C  rectal temperature (healthy adult horses; oral, 0.06 mg/kg, 72 h): 37.2 ± 0.2 °C
O=C(Nc1nc2cccc(-c3ccc(CN4CCS(=O)(=O)CC4)cc3)n2n1)C1CC1  treatment-emergent adverse events (item: arthralgia; human rheumatoid arthritis patients; oral, 150 mg once daily, 4 weeks, regardless of relatedness): 0%
Cc1cc(-c2nccc3c2ccn3CC(=O)Nc2ccc(-c3cnccn3)cn2)ccn1  musculoskeletal disorders (human; 5 mg once daily, multiple ascending dose): 0%
N#Cc1cc([C@H]2COC[C@@H](c3cc(Cl)cc(Cl)c3)N2)ccc1F  logD (shake-flask, 1-octanol/buffer; pH 7.4): > 4.7
CSc1cc(C)nc(SC)c1NC(=O)CN1CCN(CCSc2nc3ccccc3[nH]2)CC1.Cl  tissue concentration (mouse, olfactory bulb; intranasal, 7 days daily, 120 min, HA 10 µL, LLOQ 1 ng/g): not detected
C[C@@H](Oc1ccc(S(C)(=O)=O)cc1C(=O)N1C[C@@H]2C[C@]2(c2cc(C(F)(F)F)on2)C1)C(F)(F)F  half-life (LC-MS/MS; young human subjects, plasma; oral, 75 mg twice daily, single dose): 44 h
CC(C)c1nc(CN(C)C(=O)N[C@@H](CCN2CCOCC2)C(=O)N[C@H](CC[C@H](Cc2ccccc2)NC(=O)OCc2cncs2)Cc2ccccc2)cs1  grade 1 TEAE (human; oral, 150 mg, drug interaction trial): 30.8%
CC(C)=CCC1=C(O)C(=O)c2ccccc2C1=O  Epc1 cathodic peak potential (cyclic voltammetry; CH2Cl2, Bu4NPF6; 0.1 mM; baseline: Ag/AgCl sat. KOH): 0.85 V
CN1CCN(c2cccc3c2CCN(C(=O)/C=C/c2c(-n4cnnn4)ccc(Cl)c2F)[C@@H]3C(=O)Nc2ccc(C(=O)O)cc2)C(=O)C1  subjects with headache (healthy human subjects; intravenous infusion, 10 mg/h, 2 h): 0%
FC(F)(F)c1ccc(CNc2ccc(Cc3c[nH]c4ncc(Cl)cc34)cn2)cn1  adverse event incidence (item: blood alkaline phosphatase increased; patients with advanced solid tumours; oral, dose not given, grade 3 and 4, possibly related to drug): 2%
CCc1cc(C(=O)NC)c2nccc(N3CCc4c(cc(Cn5ccnc5)cc4-c4cn(C)nc4C(F)(F)F)C3=O)c2c1  serum ALB change (Sprague Dawley rats; oral, 100 mg/kg twice daily, 7 days; baseline: vehicle): 1.1%
O=C(Nc1cnccc1Cl)N1CCN(Cc2ccc3c(c2)OC(F)(F)O3)CC1  adverse event incidence (item: Dizziness; human healthy young men; 25 mg, multiple dose): 0%
C[C@H](NC(=O)[C@H](CCC(N)=O)NC(=O)[C@H](C)NC(=O)[C@H](CCCNC(=N)N)NC(=O)[C@H](CCC(N)=O)NC(=O)[C@H](C)NC(=O)[C@H](CCCNC(=N)N)NC(=O)[C@H](CCC(N)=O)NC(=O)[C@H](C)NC(=O)[C@H](CCC(N)=O)NC(=O)[C@H](CCCNC(=N)N)NC(=O)[C@H](C)NC(=O)[C@H](CCC(N)=O)NC(=O)[C@H](CCCNC(=N)N)NC(=O)[C@H](C)NC(=O)[C@H](CCC(N)=O)NC(=O)[C@H](C)NC(=O)[C@H](CCCNC(=N)N)NC(=O)[C@H](CCC(N)=O)NC(=O)[C@H](C)NC(=O)[C@H](CCCNC(=N)N)NC(=O)[C@H](CO)NC(=O)[C@H](Cc1ccc(O)c(I)c1)NC(=O)CNC(=O)CNC(=O)CN)C(=O)N[C@@H](CCCNC(=N)N)C(=O)N[C@@H](CCC(N)=O)C(=O)N[C@@H](C)C(=O)N[C@@H](CCCNC(=N)N)C(=O)N[C@@H](CCC(N)=O)C(=O)O [iodine-125 labelled]  tissue uptake (H2-Ld-huIL-6 Tg Balb/c mice, AA amyloidosis, stomach; intravenous, 4 h, decay-corrected): 23.2 %ID/g
FC(F)(F)c1ccc(CNc2ccc(Cc3c[nH]c4ncc(Cl)cc34)cn2)cn1  treatment-related adverse events (item: Diarrhea; patients with advanced solid tumours, non-TGCT cohort; oral, 1000 mg/day, grade 3 or higher): 0%
CO[C@@H]1[C@H](O)[C@@H](CO)O[C@H]1n1c([N+](=O)[O-])nc2c(=O)[nH]c(N)nc21  nucleoside remaining fraction (depurination, RP-HPLC; citrate-phosphate buffer 0.5 mM; 140 min, pH 5, 37 °C): 0.875
CN1C(=O)[C@@H](NC(=O)c2nnc(Cc3ccccc3)[nH]2)COc2cccnc21  Tmax (human, both sexes; oral, single and repeated dosing, median): 3 to 4 h
C=CC(=O)NC1CCN(c2ncc3ncnc(Nc4ccc(Oc5ccc6c(c5)ncn6C)c(C)c4)c3n2)CC1  estimated first-pass effect (healthy male volunteers; oral, 60 mg): ~10%
COc1cc(N2CCC3(CCN(C)CC3)CC2)ccc1Nc1ncc(Cl)c(Nc2ccccc2P(C)(C)=O)n1  V1/F (population PK model; human; oral, bootstrap median): 346 L
CCOC(=O)N1C[C@@H](C2CCCCC2)N[C@@H]([C@H](C)CC)C1  logD (shake-flask, 1-octanol/buffer; pH 7.4): > 4.7
C[Si]1(C)O[Si](C)(C)O[Si](C)(C)O[Si](C)(C)O1  enthalpy of phase change (1-octanol/air; concentration not given): -10.4 kcal/mol
O=C1c2ccncc2C(=O)c2c1[nH]c1ccccc21  systemic vascular hemodynamics (no effect; rat, normal; dose not given): no effect
CC(C)(C)c1ccc([C@H]2COC[C@H](c3ccc(F)c(C#N)c3)N2)cc1  logD (shake-flask, 1-octanol/buffer; pH 7.4): > 4.7
O=C1CCc2ccc(OCCCCN3CCN(c4cccc(Cl)c4Cl)CC3)cc2N1  adverse event incidence (item: Hypotension; genotyped patients, CYP2D6 poor metabolizers; dose not given, long-acting oral or depot): 11%
O=C(Nc1ccc(OC(F)(F)Cl)cc1)c1cnc(N2CC[C@@H](O)C2)c(-c2ccn[nH]2)c1  grade ≥3 event rate (per treatment cycle, item: platelet decrease; human patients; oral, dose not given, 28 day cycle, dose-finding study): 2.9%
Cl.[2H]C([2H])([2H])CC(=O)c1cnc(NC(=O)C2CC2)cc1Nc1cccc(-c2ncn(C([2H])([2H])[2H])n2)c1OC  Vz/F (geometric mean; human; oral, 10 mg once daily, day 7, fasted, liquid, multiple dose): 152 L
CCOc1c([C@H](C)n2nc(C)c3c(N)ncnc32)cc(Cl)c(F)c1[C@@H]1CNC(=O)C1  patients (item: QTcF change above 60 ms; previously treated B-cell malignancy; oral, 45 mg once daily, overall population; baseline: baseline): 0%
Cc1cc(NC2CCN(C(=O)OC3CCN(C(=O)/C=C/CN(C)C)C3)CC2)n2ncc(C(C)C)c2n1 (centres unmarked)  patients with Anemia (patients with advanced solid tumours; dose not given, QD arm, grade 3 or higher): 9%
O=C(OC(C(F)(F)F)C(F)(F)F)N1CCN(Cc2cccc(Oc3ccccc3)c2)CC1  k2 (PET blocking study; rhesus monkey, brain OCC; 0.1 mg/kg, compound pretreatment, added: [18F]T-401 tracer): 0.064 min⁻¹
O=C(O)CN1CCCN2CCN(Cc3ccccc3)CCCN(CC1)Cc1cccc(n1)C2  intact complex (64Cu complex; 24 h, 70 °C, added: DOTA excess): 95%
O=C(O)c1ccc(C(=O)Nc2cc(C3CC3)[nH]n2)cc1  logD (octanol/buffer; 67 µM, pH 7.4): -0.91
CCN1CCN(Cc2ccc(Nc3ncc(F)c(-c4cc(F)c5nc6n(c5c4)[C@H](C)CCC6)n3)nc2)CC1  CL/F (human, plasma; 50 mg multiple dosing, mean): 30.4 L/h
COc1cccc(-n2nnnc2SCC(=O)Nc2c(C)cc(C)cc2C)c1  logD (octanol/buffer; pH 7.4): 3.98
C[N+](C)([O-])CCCN1c2ccccc2CCc2ccccc21  chromatographic hydrophobicity index (reverse phase LC, C18; acetonitrile gradient, 0.1% formic acid; converted from retention time; baseline: Valko CHI standards): 67.5

Some of these lines once more:
CO[C@@H]1[C@H](O)[C@@H](CO)O[C@H]1n1c([N+](=O)[O-])nc2c(=O)[nH]c(N)nc21  nucleoside remaining fraction (depurination, RP-HPLC; citrate-phosphate buffer 0.5 mM; 140 min, pH 5, 37 °C): 0.875
CN1C(=O)[C@@H](NC(=O)c2nnc(Cc3ccccc3)[nH]2)COc2cccnc21  Tmax (human, both sexes; oral, single and repeated dosing, median): 3 to 4 h
C=CC(=O)NC1CCN(c2ncc3ncnc(Nc4ccc(Oc5ccc6c(c5)ncn6C)c(C)c4)c3n2)CC1  estimated first-pass effect (healthy male volunteers; oral, 60 mg): ~10%
